{"data": "Published values collected from several papers", "note": "Every numbered part comes from another study and shows a few of its results, in no order. “And” joins repeats or separate records; there may be more than shown. Changes are numbered by the printed parent chain."}
{"data": "Set 1", "SMILES": "C=CCc1ccc(O)c(-c2ccc(O)c(CC=C)c2)c1", "observed": "chloride current", "ANO1 del476-501": "Anoctamin-1 (ANO1, Homo sapiens, UniProt Q5XXA6, del476-501)", "ANO1 del476-501/F628A": "Anoctamin-1 (ANO1, Homo sapiens, UniProt Q5XXA6, del476-501/F628A)", "sequence of UniProt Q5XXA6 (whole entry, unmodified, looked up)": "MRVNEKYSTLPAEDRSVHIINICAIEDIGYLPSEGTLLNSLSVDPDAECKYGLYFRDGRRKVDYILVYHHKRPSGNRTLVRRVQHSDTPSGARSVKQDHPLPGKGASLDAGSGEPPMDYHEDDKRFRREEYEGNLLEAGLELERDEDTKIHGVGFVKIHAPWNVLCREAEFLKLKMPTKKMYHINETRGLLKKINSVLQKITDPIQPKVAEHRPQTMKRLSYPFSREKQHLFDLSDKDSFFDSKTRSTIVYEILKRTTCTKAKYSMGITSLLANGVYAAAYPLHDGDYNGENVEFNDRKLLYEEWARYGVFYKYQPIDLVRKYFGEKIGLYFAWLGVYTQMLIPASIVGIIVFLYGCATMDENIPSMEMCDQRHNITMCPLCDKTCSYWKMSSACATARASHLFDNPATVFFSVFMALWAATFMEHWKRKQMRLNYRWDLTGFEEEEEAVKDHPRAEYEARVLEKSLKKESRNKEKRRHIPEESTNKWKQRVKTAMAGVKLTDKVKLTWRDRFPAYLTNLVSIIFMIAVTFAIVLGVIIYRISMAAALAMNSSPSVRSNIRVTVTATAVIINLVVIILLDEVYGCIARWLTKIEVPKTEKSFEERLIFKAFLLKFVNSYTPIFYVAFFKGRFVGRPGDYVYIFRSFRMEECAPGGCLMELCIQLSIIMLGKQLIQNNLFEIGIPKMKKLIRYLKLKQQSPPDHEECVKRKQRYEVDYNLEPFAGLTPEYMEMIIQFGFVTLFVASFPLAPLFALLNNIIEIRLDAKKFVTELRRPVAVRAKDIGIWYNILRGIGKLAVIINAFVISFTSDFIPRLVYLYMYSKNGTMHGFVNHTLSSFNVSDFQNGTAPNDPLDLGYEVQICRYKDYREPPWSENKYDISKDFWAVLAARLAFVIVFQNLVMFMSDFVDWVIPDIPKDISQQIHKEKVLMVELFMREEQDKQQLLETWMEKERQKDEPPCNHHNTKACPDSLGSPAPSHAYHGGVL"}
{"target": "ANO1 del476-501", "test": "whole-cell voltage clamp", "setting": "1 µM, wild type, concentration-response at 80 mV, with: 4 µM Ca2+", "normalized current": 0.684}
{"target": "ANO1 del476-501", "test": "whole-cell voltage clamp", "setting": "1 µM, wild type, concentration-response at 100 mV, with: 4 µM Ca2+", "normalized current": 0.921}
{"target": "Anoctamin-1 (ANO1, Homo sapiens, UniProt Q5XXA6, del476-501/E659A)", "test": "inside-out patch clamp", "setting": "10 µM, membrane voltage 80 mV", "normalized current": 0.648}
{"target": "Anoctamin-1 (ANO1, Homo sapiens, UniProt Q5XXA6, del476-501/K629A)", "test": "inhibitor, inside-out patch clamp", "setting": "10 µM, K603A mutant at -100 mV", "normalized current": -0.612}
{"target": "ANO1 del476-501/F628A", "test": "whole-cell voltage clamp", "setting": "30 µM, I-V at 100 mV, with: 4 µM Ca2+", "normalized current": 0.515}
{"target": "ANO1 del476-501/F628A", "test": "whole-cell voltage clamp", "setting": "3 µM, concentration-response at -20 mV, with: 4 µM Ca2+", "normalized current": -0.177}
{"target": "Anoctamin-1 (ANO1, Homo sapiens, UniProt Q5XXA6)", "test": "inside-out patch clamp", "setting": "10 µM, membrane voltage 120 mV", "normalized current": 1}
{"target": "ANO1 del476-501", "test": "whole-cell voltage clamp", "setting": "10 µM, wild type, I-V at -40 mV, with: 4 µM Ca2+", "normalized current": -0.12}
{"data": "Set 2", "cell line": "HaCaT", "tested at": "100 µM", "time": "18 h"}
{"SMILES": "CCN(CC)CCOC(=O)C(c1ccccc1)c1ccccc1", "viability": "89.3%"}
{"SMILES": "O=C(O)c1cc(/N=N/c2ccc(O)c(C(=O)O)c2)ccc1O", "viability": "113%"}
{"SMILES": "CN(Cc1cc(Br)cc(Br)c1N)C1CCCCC1", "viability": "25.5%"}
{"SMILES": "OCCN1CCN(CCCN2c3ccccc3Sc3ccc(Cl)cc32)CC1", "viability": "19.3%"}
{"SMILES": "C[C@]12CC[C@@H]3c4ccc(OC(=O)c5ccccc5)cc4CC[C@H]3[C@@H]1CC[C@@H]2O", "viability": "18%"}
{"SMILES": "COc1ccccc1N1CCN(CC(O)COc2cccc3ccccc23)CC1 (centres unmarked)", "viability": "17.8%"}
{"SMILES": "CCCCN(CCCC)CC(O)c1cc(Cl)cc2c1-c1ccc(Cl)cc1/C2=C/c1ccc(Cl)cc1 (centres unmarked)", "viability": "17.4%"}
{"SMILES": "N[C@@H](Cc1cc(I)c(Oc2ccc(O)c(I)c2)c(I)c1)C(=O)O", "viability": "74.3%"}
{"data": "Single results of other studies", "CCNB3": "CCNB3, cyclin fold, Cln2 fusion (human)", "P1": "viral docking peptide; KKAKRRLFTISDS; partner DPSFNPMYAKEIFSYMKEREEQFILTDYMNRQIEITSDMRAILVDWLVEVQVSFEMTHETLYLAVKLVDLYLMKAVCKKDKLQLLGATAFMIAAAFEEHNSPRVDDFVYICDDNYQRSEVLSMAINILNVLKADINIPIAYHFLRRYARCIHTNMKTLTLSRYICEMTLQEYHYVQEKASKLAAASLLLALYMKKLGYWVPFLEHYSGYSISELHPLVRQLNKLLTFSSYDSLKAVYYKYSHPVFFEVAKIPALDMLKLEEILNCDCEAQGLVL"}
{"Substance": "P1 D12A", "target or system": "CCNB3", "test": "yeast growth competition, sequencing", "test system": "yeast", "setting": "strong parent motif", "scale": "relative to: not given, higher = stronger binding", "measurement": "normalised enrichment score", "value": 0.131}
{"Substance": "CC[C@@H](C)c1nc2cc(Nc3ccnc4ccc(S(=O)(=O)C(C)C)cc34)ccc2s1.Cl", "target or system": "L929 RIPK3 knockout", "setting": "1.563 µM", "measurement": "viability", "value": "104% and 97.6% and 103% and 102%"}
{"Substance": "P1 R5A", "target or system": "CCNB3", "test": "yeast growth competition, sequencing", "test system": "yeast", "setting": "strong parent motif", "scale": "relative to: not given, higher = stronger binding", "measurement": "normalised enrichment score", "value": 0.486}
{"Substance": "CC(C)n1cnc(-c2ccc(F)cc2)c1-c1ncc(C(=O)Nc2ccc(N3CCN(C)CC3)cc2)[nH]1", "test system": "human, idiopathic pulmonary fibrosis", "setting": "30 mg once daily, trial, treatment-emergent", "measurement": "patients with Paronychia", "value": "0%"}
{"note": "A few entries again (set 2):"}
{"SMILES": "C[C@]12CC[C@@H]3c4ccc(OC(=O)c5ccccc5)cc4CC[C@H]3[C@@H]1CC[C@@H]2O", "viability": "18%"}
